Measured values gathered from unrelated publications.
A part holds a random share of what one study measured.
Chain of UniProt P49840 (whole entry, looked up): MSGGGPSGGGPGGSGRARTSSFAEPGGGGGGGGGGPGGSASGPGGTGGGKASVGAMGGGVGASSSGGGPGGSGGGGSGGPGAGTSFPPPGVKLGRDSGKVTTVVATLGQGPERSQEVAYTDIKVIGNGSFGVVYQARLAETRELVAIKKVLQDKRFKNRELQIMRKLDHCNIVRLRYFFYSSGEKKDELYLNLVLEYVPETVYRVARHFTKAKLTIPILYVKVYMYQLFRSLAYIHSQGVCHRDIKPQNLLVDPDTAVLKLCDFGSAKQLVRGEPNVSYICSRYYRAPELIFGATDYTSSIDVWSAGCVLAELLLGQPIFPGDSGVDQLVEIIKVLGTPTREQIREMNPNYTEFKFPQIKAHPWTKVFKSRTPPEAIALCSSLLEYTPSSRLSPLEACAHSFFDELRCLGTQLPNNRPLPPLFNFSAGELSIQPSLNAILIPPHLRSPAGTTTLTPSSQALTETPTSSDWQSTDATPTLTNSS
Chain of UniProt O75116 (whole entry, looked up): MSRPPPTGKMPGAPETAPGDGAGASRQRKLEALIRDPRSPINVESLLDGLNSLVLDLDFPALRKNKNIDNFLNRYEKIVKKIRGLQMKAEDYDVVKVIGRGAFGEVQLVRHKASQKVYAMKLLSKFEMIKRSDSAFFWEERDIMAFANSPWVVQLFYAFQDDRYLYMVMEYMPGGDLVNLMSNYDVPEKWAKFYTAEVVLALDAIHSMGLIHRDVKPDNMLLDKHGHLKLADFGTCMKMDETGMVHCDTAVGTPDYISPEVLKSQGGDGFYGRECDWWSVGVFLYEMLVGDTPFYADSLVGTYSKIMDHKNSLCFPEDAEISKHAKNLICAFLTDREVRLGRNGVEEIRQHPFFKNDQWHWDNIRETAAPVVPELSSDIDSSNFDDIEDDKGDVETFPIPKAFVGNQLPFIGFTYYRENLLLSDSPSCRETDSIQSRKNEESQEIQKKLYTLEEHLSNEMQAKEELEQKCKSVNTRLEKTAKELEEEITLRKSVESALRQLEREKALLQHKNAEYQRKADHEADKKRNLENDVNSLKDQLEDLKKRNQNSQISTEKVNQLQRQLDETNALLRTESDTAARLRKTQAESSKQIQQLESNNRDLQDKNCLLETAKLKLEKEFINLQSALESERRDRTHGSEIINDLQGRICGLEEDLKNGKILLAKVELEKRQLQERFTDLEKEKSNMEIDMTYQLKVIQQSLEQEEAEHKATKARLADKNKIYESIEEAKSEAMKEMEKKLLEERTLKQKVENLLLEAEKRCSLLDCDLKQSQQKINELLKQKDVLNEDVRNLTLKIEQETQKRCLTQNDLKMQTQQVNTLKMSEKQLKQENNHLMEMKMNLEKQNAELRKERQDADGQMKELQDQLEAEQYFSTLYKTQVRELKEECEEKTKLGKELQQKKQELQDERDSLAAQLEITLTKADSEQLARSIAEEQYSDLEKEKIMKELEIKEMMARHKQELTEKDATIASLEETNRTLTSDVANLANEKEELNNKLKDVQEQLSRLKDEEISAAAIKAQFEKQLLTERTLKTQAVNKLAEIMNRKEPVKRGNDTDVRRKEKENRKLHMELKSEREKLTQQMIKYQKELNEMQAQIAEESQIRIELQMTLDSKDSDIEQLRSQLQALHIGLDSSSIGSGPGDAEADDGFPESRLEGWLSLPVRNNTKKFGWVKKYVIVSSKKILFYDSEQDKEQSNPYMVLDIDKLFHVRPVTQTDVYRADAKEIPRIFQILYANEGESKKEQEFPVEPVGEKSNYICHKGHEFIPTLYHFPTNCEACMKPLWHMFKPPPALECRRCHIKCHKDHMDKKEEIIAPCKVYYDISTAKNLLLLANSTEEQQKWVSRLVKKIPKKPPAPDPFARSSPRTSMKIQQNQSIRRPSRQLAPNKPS
Chain of UniProt Q9P286 (whole entry, looked up): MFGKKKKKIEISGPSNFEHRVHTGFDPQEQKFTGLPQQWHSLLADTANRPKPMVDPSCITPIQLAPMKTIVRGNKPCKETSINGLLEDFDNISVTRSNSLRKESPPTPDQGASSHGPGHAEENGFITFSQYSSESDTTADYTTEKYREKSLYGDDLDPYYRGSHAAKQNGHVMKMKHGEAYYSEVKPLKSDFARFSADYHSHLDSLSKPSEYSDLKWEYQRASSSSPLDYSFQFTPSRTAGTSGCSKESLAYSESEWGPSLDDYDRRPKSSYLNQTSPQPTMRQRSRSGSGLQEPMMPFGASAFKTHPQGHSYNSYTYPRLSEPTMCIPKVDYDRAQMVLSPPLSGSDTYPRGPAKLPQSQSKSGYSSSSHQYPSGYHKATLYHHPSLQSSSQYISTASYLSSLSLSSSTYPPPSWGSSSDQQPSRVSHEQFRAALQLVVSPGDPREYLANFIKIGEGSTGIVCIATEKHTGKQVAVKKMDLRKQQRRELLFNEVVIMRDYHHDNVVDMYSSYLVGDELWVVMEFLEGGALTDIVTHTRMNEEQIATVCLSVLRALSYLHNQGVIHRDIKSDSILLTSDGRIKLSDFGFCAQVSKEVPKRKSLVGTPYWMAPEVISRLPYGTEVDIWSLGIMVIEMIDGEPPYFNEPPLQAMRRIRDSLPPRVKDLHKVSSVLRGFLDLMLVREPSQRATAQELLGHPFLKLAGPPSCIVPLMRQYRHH
Chain of UniProt P23443 (whole entry, looked up): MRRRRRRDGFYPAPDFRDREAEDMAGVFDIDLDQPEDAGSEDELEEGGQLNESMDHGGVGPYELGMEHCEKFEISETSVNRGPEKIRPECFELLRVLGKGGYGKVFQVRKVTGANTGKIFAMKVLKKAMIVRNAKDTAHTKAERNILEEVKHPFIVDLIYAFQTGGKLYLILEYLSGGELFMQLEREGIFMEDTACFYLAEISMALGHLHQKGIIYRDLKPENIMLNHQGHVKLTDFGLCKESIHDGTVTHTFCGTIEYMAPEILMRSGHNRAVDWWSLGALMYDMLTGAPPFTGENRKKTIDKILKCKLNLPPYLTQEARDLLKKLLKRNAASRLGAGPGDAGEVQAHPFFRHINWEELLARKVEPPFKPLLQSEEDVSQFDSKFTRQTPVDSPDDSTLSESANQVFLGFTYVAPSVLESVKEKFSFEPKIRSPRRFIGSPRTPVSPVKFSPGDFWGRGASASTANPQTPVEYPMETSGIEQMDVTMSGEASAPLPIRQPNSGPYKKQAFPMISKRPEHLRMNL
Chain of UniProt Q9HCP0 (whole entry, looked up): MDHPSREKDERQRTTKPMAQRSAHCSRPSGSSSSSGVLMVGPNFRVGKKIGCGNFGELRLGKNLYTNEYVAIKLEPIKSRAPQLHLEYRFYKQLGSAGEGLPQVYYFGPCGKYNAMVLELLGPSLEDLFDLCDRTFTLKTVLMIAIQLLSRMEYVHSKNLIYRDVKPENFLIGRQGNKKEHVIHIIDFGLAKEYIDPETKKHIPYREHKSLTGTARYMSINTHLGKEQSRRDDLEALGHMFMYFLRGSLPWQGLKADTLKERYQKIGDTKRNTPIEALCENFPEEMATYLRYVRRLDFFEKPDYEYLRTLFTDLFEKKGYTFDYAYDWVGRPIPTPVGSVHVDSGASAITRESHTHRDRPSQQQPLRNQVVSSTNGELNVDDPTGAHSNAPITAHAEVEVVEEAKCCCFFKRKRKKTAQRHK

Sample 1 — concentration: 5 µM
Compound: O=C(Nc1cnn(-c2csc(C(=O)NC3COC3)c2)c1)Nc1ccccc1Cl
target	effect on	method	reference	remaining activity [%]
Cyclin-dependent kinase 8, with cyclin C (CDK8, Homo sapiens, UniProt P49336)	enzyme activity	–	untreated control	100
Rho-associated protein kinase 2 (ROCK2, Homo sapiens, UniProt O75116)	enzyme activity	–	untreated control	99.4
Ribosomal protein S6 kinase beta-1 (RPS6KB1, Homo sapiens, UniProt P23443)	enzyme activity	–	untreated control	91.1
cGMP-dependent protein kinase 1, isoform beta (PRKG1, Homo sapiens, UniProt Q13976)	kinase activity	kinase panel profiling	–	87.5
Casein kinase I isoform gamma-1 (CSNK1G1, Homo sapiens, UniProt Q9HCP0)	enzyme activity	–	untreated control	95.5
Calcium/calmodulin-dependent protein kinase type 1B (PNCK, Homo sapiens, UniProt Q6P2M8)	enzyme activity	–	untreated control	96.3

Sample 2 — effect on: enzyme activity; action: inhibitor; concentration: 10 µM
Target: Calcium/calmodulin-dependent protein kinase type II subunit alpha (CAMK2A, Homo sapiens, UniProt Q9UQM7)
Chain of UniProt Q9UQM7 (whole entry, looked up): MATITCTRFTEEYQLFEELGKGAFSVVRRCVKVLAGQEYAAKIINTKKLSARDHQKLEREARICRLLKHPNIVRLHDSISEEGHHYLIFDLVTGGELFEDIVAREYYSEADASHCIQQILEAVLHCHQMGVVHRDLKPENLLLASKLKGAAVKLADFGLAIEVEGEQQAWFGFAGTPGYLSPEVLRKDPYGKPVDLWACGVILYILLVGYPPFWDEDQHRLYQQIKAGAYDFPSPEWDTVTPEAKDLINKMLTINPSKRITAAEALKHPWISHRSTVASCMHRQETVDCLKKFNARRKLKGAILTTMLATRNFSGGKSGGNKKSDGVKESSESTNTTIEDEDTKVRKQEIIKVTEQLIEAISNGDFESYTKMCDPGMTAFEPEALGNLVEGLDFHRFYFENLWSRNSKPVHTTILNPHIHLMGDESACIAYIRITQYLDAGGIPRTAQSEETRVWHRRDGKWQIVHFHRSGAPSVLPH
SMILES	inhibition
Oc1cc(O)c2c(c1)OC(c1ccc(O)c(O)c1)C(O)C2O (stereo not drawn)	18%
N[C@@H](Cc1ccccc1)C(=O)O	22%
CCCCCCCCCCCCCCCCCC(=O)NCCO	-25%
O=c1n(CCCN2CCN(c3cccc(Cl)c3)CC2)nc2ccccn12	-7%
O=C(O)[C@H]1O[C@@H](Oc2cc(-c3cc(=O)c4c(O)cc(O)cc4o3)ccc2O)[C@H](O)[C@@H](O)[C@@H]1O	-27%
Oc1cc(O)cc(/C=C/c2ccccc2)c1	-24%
CC(=O)c1ccccc1C	13%

Sample 3 — concentration: 1 µM
Structure (SMILES): CN(C(=O)c1ccccc1)c1cc(N(C)c2ccc3c(c2)CCc2ccc(C(=O)NCCN4CCOCC4)cc2C3=O)ccc1F
target	effect on	method	remaining binding
Epidermal growth factor receptor (EGFR, Homo sapiens, UniProt P00533, G719C)	cell-free assay	competition with immobilised ligand	85%
Serine/threonine-protein kinase PAK 5 (PAK5, Homo sapiens, UniProt Q9P286)	cell-free assay	competition with immobilised ligand	95%
Tyrosine-protein kinase Fes/Fps (FES, Homo sapiens, UniProt P07332)	cell-free assay	competition with immobilised ligand	89%
Serine/threonine-protein kinase MRCK alpha (CDC42BPA, Homo sapiens, UniProt Q5VT25)	cell-free assay	competition with immobilised ligand	100%
Serine/threonine-protein kinase B-raf (BRAF, Homo sapiens, UniProt P15056, V600E)	cell-free assay	competition with immobilised ligand	100%
Glycogen synthase kinase-3 alpha (GSK3A, Homo sapiens, UniProt P49840)	cell-free assay	competition with immobilised ligand	77%
Protein-tyrosine kinase 2-beta (PTK2B, Homo sapiens, UniProt Q14289)	cell-free assay	competition with immobilised ligand	87%
Tyrosine-protein kinase ABL1, phosphorylated (ABL1, Homo sapiens, UniProt P00519, F317I)	binding	–	86%
Receptor-type tyrosine-protein kinase FLT3 (FLT3, Homo sapiens, UniProt P36888, N841I)	cell-free assay	competition with immobilised ligand	80%

Sample 4 — effect on: enzyme activity; action: inhibitor; concentration: 0.5 µM; reference: control
Target: Ephrin type-B receptor 4 (EPHB4, Homo sapiens, UniProt P54760)
Chain of UniProt P54760 (whole entry, looked up): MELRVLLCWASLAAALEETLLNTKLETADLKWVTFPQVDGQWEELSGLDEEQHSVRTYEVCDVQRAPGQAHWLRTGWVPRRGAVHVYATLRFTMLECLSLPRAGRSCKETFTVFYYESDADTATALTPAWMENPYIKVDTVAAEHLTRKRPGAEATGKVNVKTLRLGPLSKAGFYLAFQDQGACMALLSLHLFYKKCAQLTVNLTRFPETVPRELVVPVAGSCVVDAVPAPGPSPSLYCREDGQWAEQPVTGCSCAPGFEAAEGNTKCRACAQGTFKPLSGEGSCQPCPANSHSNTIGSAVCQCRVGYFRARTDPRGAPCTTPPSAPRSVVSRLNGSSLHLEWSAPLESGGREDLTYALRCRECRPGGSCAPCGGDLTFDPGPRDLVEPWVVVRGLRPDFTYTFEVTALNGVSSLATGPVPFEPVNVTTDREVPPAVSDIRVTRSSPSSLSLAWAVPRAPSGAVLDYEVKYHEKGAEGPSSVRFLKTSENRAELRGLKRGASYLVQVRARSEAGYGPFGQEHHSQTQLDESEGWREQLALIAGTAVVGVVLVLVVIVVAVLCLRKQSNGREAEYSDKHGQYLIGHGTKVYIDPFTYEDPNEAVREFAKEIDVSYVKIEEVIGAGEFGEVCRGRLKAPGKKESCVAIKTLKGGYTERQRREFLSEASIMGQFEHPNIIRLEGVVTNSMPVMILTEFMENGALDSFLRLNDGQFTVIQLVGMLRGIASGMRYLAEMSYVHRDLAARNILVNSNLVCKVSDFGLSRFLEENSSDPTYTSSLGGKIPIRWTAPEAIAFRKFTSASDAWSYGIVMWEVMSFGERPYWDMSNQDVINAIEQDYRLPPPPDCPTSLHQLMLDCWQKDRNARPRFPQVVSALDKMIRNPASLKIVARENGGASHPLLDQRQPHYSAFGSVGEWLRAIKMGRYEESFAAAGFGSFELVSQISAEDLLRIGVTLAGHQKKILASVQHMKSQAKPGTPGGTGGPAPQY
Structure (SMILES)	remaining activity [%]
CN(C)c1ccc(C=C2C(=O)Nc3ccccc32)cc1	97.4
COc1cc2nccc(Oc3ccc(NC(=S)NC(=O)c4ccccc4C)cc3)c2cc1OC	103
Cn1sc(=O)n(Cc2ccccc2)c1=O	100
OCC(O)CCON=C1C(c2c(O)[nH]c3ccccc23)=Nc2ccccc21 (stereo not drawn)	72.2
O=C(Nc1cccc(Nc2cc(Nc3cccc(C(F)(F)F)c3)ncn2)c1)C1CC1	97.8
O=C(CCCc1ccc(-c2ccccc2F)cc1)Nc1ccc(O)cc1	106
Cc1ccc(NC(=O)c2ccc(CN3CCN(C)CC3)cc2)cc1Nc1nc(-c2cccnc2)cs1	97.3
O=C1NC(=O)C(c2cn(CCCO)c3ncccc23)=C1c1cnccn1	95.2
O=C(O)c1ccc2c3c1cccc3c(=O)n1c3ccccc3nc21	90.6
Cc1nc(-c2ccccc2)c(-c2ccncc2)o1	84.8
COc1ccc(C(=O)Nc2sc3c(c2C(N)=O)CCCC3)cc1OC	93.9
COc1ccc(CNC(=O)Nc2ncc([N+](=O)[O-])s2)cc1	100
N#CC(C#N)=C(N)/C(C#N)=C/c1ccc(O)cc1	88.1
O=c1c2ccccc2[nH]c(=S)n1CCN1CCC(=C(c2ccc(F)cc2)c2ccc(F)cc2)CC1	97.1
